Experimental data collected from several papers.
Protocols differ between the studies behind these lines. Substitutions count along the parent as printed. ± gives the spread as reported.
P1: PRDX1 residues 1-199; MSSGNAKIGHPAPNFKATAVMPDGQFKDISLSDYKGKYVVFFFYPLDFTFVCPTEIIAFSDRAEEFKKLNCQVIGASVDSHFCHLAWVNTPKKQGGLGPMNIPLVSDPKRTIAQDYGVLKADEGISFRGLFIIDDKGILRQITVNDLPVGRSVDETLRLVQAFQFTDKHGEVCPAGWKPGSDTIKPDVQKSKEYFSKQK
B1: protein (Thermotoga neapolitana, UniProt B9K712); chain MKMLYDLAKKRKTVRRFKKEKPPLEDLIYSLKVANEAPSGMNAQPWRFLIVEDEKLKGQIRRVCERSEKTFYENVRGRLKEWLDEKRFTWRKPFLKEAPYLLLVFSEKSAPYSRESVWLAVGYLLLALEEKGLGSVPYTPPDFREVEKLVNTPSELRLEVILPVGYPDDPKPKYPRNEVIVRYNTF
B2: SULT1A1 (Homo sapiens, UniProt P50225); chain MELIQDTSRPPLEYVKGVPLIKYFAEALGPLQSFQARPDDLLISTYPKSGTTWVSQILDMIYQGGDLEKCHRAPIFMRVPFLEFKAPGIPSGMETLKDTPAPRLLKTHLPLALLPQTLLDQKVKVVYVARNAKDVAVSYYHFYHMAKVHPEPGTWDSFLEKFMVGEVSYGSWYQHVQEWWELSRTHPVLYLFYEDMKENPKREIQKILEFVGRSLPEETVDFVVQHTSFKEMKKNPMTNYTTVPQEFMDHSISPFMRKGMAGDWKTTFTVAQNERFDADYAEKMAGCSLSFRSEL
P2: PRDX1 (Homo sapiens); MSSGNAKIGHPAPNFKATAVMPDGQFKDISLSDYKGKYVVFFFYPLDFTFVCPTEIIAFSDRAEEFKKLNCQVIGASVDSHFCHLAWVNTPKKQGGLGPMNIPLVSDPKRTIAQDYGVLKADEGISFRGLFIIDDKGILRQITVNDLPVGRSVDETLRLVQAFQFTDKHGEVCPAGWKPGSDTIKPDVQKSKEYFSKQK
Chain of UniProt P19525 (whole entry, unmodified, looked up): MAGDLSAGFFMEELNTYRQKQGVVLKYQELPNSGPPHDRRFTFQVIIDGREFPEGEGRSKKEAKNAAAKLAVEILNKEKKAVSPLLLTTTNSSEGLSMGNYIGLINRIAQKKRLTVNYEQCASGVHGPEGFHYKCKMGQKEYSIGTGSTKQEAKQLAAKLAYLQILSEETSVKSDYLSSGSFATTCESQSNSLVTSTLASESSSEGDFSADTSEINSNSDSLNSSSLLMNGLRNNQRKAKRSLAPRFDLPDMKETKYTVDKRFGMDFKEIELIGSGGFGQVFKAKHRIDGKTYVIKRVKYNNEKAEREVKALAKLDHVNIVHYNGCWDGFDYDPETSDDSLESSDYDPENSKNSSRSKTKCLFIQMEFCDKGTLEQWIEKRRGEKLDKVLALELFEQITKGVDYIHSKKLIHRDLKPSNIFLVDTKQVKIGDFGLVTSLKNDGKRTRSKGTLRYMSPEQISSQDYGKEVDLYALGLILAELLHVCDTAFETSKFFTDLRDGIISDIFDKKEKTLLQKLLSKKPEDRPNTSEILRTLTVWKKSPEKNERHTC

Substance | target or system | test | test system | conditions | how to read | measurement | result
P1 D47A | DOK3 fragment | pull-down |  | read off a plot, added: SAB 50 µmol/L | higher = more binding | IP/Input | 1 IP/Input
CSCC[C@H](NC(=O)[C@H](CC(C)C)NC(=O)[C@H](Cc1c[nH]cn1)NC(=O)CNC(=O)[C@@H](NC(=O)[C@H](C)NC(=O)[C@H](Cc1c[nH]c2ccccc12)NC(=O)[C@H](CCC(N)=O)NC(=O)CCOCCOCCOCCOCCNC(=O)CN1CCN(CC(=O)O)CCN(CC(=O)O)CCN(CC(=O)O)CC1)C(C)C)C(N)=O [indium-111 labelled] |  |  | Swiss nu/nu mice, PC-3 xenograft | intravenous, 10 pmol, 1 h to 24 h post injection |  | tumour to pancreas ratio increase | 1 fold
B1 (protein) | N[C@@H](Cc1ccc(O)c(Br)c1)C(=O)O | steady-state kinetics |  | pH 7.4, 60 °C |  | Km | 0.14 µM
N=C(N)NCCC[C@@H]1NC(=O)[C@H](CCCCNC(=S)Nc2ccc(CC3CN(CC(=O)O)CCN(CC(=O)O)CCN(CC(=O)O)CCN3CC(=O)O)cc2)NC(=O)[C@@H](Cc2ccc(O)cc2)NC(=O)[C@H](CC(=O)O)NC(=O)CNC1=O (stereo partly shown) [actinium-225 labelled] |  |  | U-87 MG tumour-bearing mice | 1 h |  | tumour to muscle ratio | 2.4
N=C(N)NCCC[C@@H]1NC(=O)[C@H](CCCCNC(=O)CNC(=O)CNC(=O)CNC(=O)CC[C@H](NC(=O)CNC(=O)CNC(=O)CNC(=O)CC[C@H](NC(=O)CN2CCN(CC(=O)O)CCN(CC(=O)O)CCN(CC(=O)O)CC2)C(=O)NCC(=O)NCC(=O)NCC(=O)N[C@@H](CCC(=O)NCC(=O)NCC(=O)NCC(=O)NCCCC[C@@H]2NC(=O)[C@@H](Cc3ccccc3)NC(=O)[C@H](CC(=O)O)NC(=O)CNC(=O)[C@H](CCCNC(=N)N)NC2=O)C(=O)NCC(=O)NCC(=O)NCC(=O)NCCCC[C@@H]2NC(=O)[C@@H](Cc3ccccc3)NC(=O)[C@H](CC(=O)O)NC(=O)CNC(=O)[C@H](CCCNC(=N)N)NC2=O)C(=O)NCC(=O)NCC(=O)NCC(=O)NCCCC[C@@H]2NC(=O)[C@@H](Cc3ccccc3)NC(=O)[C@H](CC(=O)O)NC(=O)CNC(=O)[C@H](CCCNC(=N)N)NC2=O)NC(=O)[C@@H](Cc2ccccc2)NC(=O)[C@H](CC(=O)O)NC(=O)CNC1=O [indium-111 labelled] |  |  | female athymic nu/nu mice, bone | intravenous, 24 h |  | tissue uptake | 1.41 ± 0.29 %ID/g
CCCC[C@H](NC(=O)CCCCCCCNC(=O)CN1CCN(CC(=O)O)CCN(CC(=O)O)CC1)C(=O)N[C@H]1CC(=O)NCCCC[C@@H](C(N)=O)NC(=O)[C@H](Cc2c[nH]c3ccccc23)NC(=O)[C@H](CCCNC(=N)N)NC(=O)[C@@H](Cc2ccccc2)NC(=O)[C@H](Cc2c[nH]cn2)NC1=O [copper-64 labelled] |  |  | C57 mice, pancreas | intravenous, 0.37 MBq, 0.5 h |  | tissue uptake | 0.75 ± 0.19 %ID/g
B2 (SULT1A1) | O=C(O[C@@H]1Cc2c(O)cc(O)cc2O[C@@H]1c1cc(O)c(O)c(O)c1)c1cc(O)c(O)c(O)c1 | steady-state kinetics |  | pH 7.4, not purified, added: EGCG 0–0.4 µM |  | Vmax | 0.0357 µmol/min/mg
CC(C)C[C@H](NC(=O)C[C@H](O)[C@H](CC(C)C)NC(=O)[C@H](Cc1c[nH]cn1)NC(=O)CNC(=O)[C@@H](NC(=O)[C@H](C)NC(=O)[C@H](Cc1c[nH]c2ccccc12)NC(=O)[C@H](CCC(N)=O)NC(=O)[C@@H](Cc1ccccc1)NC(=O)CCOCCOCCOCCNC(=O)CN1CCN(CC(=O)O)CCN(CC(=O)O)CC1)C(C)C)C(N)=O [gallium-68 labelled] |  | radio-HPLC | nude mice, PC-3 tumour, tumour homogenate | intravenous, 37 MBq, 30 min |  | intact parent | 79.7%
P2 F48A | DOK3 | co-IP | HEK-293T | without SAB, read off a plot | higher = more binding | IP/Input | 0.52 IP/Input
N=C(N)NCCC[C@@H]1NC(=O)[C@H](CCCCNC(=O)CNC(=O)CNC(=O)CNC(=O)CC[C@H](NC(=O)CNC(=O)CNC(=O)CNC(=O)CN2CCN(CC(=O)O)CCN(CC(=O)O)CCN(CC(=O)O)CC2)C(=O)NCC(=O)NCC(=O)NCC(=O)NCCCC[C@@H]2NC(=O)[C@@H](Cc3ccccc3)NC(=O)[C@H](CC(=O)O)NC(=O)CNC(=O)[C@H](CCCNC(=N)N)NC2=O)NC(=O)[C@@H](Cc2ccccc2)NC(=O)[C@H](CC(=O)O)NC(=O)CNC1=O [indium-111 labelled] |  |  | female athymic nu/nu mice, U87MG tumour | intravenous, 111 kBq, 24 h |  | tissue uptake | 4.83 ± 1.19 %ID/g
RNA 1 GGAGGAUGUUAAUUGGCGUGUCUUGUCUGCAACGGUAUUC / RNA 2 GAAUACCGUUGCAGACAAGACACGCCAAUUAACAUCCUCC (dsRNA) | EIF2AK2 1-185 Y142W/Q110A (Homo sapiens, UniProt P19525) | tryptophan fluorescence anisotropy | double-stranded RNA | 1 µM |  | binding | binds
N=C(N)NCCC[C@@H]1NC(=O)[C@H](CCCCNC(=O)CC[C@H](NC(=O)CC[C@H](NC(=O)CN2CCN(CC(=O)O)CCN(CC(=O)O)CCN(CC(=O)O)CC2)C(=O)N[C@@H](CCC(=O)NCCCC[C@@H]2NC(=O)[C@@H](Cc3ccccc3)NC(=O)[C@H](CC(=O)O)NC(=O)CNC(=O)[C@H](CCCNC(=N)N)NC2=O)C(=O)NCCCC[C@@H]2NC(=O)[C@@H](Cc3ccccc3)NC(=O)[C@H](CC(=O)O)NC(=O)CNC(=O)[C@H](CCCNC(=N)N)NC2=O)C(=O)NCCCC[C@@H]2NC(=O)[C@@H](Cc3ccccc3)NC(=O)[C@H](CC(=O)O)NC(=O)CNC(=O)[C@H](CCCNC(=N)N)NC2=O)NC(=O)[C@@H](Cc2ccccc2)NC(=O)[C@H](CC(=O)O)NC(=O)CNC1=O [indium-111 labelled] |  |  | female athymic nu/nu mice, liver | intravenous, 4 h |  | tissue uptake | 2.75 ± 0.29 %ID/g
UGGAGCCUUCCACCCCGGCACUCAUGACGGUCUGCCUGAAAACCAGCCCGCUGGUGGGGCAGUCCCGAGGACCUGGCGUGCAUCCCCGCCGGAGGAAGGUCCA (structured RNA) | Sbp2 full length assumed (Drosophila melanogaster, UniProt Q9VSH1) | EMSA | folded RNA |  |  | Kd | 220 ± 50 nM
